Experimental data pooled from the literature.
Numbered parts are unrelated; each lists some results of a single study. Substitutions count along the parent as printed.

Sample 1
Target: Histone acetyltransferase KAT6A, winged helix 2, GST fusion (KAT6A, Homo sapiens, UniProt Q92794, residues 85-181)
Method: protein binding microarray
Form: double-stranded DNA, one strand shown
Matrix: in vitro
Concentration: not given
Setting: 8-mer, flanks averaged, mean of 2 arrays, mostly near background
Relative to: not given
Direction: higher = stronger binding
Target sequence (chain): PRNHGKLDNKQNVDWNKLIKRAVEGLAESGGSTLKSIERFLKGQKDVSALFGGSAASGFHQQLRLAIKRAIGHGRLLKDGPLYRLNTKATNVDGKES
The E-score of `AGCTCCAA` is reported as 0.0895.
With `GCGGGGGA` the E-score was 0.101.
For `CGAACAGC`, the E-score was 0.111.
`CCCAGGCG` gave an E-score of 0.232.
With `CCCGAAGG` the E-score was 0.197.
`AAGCGTGA` gave an E-score of -0.0901.
With `ATCCGCGG` the E-score was 0.208.
`GAAGCTTA` gave an E-score of -0.0332.

Sample 2
Target: Centromere-binding protein 1, full length, His-tagged (CBF1, Saccharomyces cerevisiae, UniProt P17106, residues 1-351)
Sequence of UniProt P17106 (whole entry, looked up): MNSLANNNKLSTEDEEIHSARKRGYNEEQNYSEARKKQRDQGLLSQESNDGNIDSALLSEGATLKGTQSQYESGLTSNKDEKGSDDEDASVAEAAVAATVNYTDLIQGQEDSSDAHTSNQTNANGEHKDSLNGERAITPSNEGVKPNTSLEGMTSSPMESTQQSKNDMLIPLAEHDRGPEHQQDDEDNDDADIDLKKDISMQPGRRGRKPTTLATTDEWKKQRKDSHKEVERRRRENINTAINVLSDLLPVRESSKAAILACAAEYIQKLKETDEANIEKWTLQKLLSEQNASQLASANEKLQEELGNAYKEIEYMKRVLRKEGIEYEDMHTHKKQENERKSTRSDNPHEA
Method: competition protein-binding microarray
Form: double-stranded DNA, one strand shown
Matrix: in vitro
Concentration: 2 µM
Setting: whole 60-bp probe, lowest competitor level
Together with: Pho4 competitor, 0.05 µM
Direction: higher = stronger binding
All sequences stand within: … GTCTTGATTCGCTTGACGCTGCTG
`CTGGAACTAGATCGGCACGCAACTTTTGTGGGCGAG` gave a fluorescence intensity of 68.1 a.u.
`CCGATCAGACCAGCAAACGTGCAAACCACTTATGGA` has a fluorescence intensity of 88.9 a.u.
The fluorescence intensity of `CGGGGTTAAGTTTGGTGTGTGGGTGGCTTGCAGCAG` is reported as 74.8 a.u.
For `GCGGAACGGCCCGCAATCGTGACTCGGCCAAAGGCG`, the fluorescence intensity was 71.4 a.u.
`CGGGGTTAAGTTTGTGTTGTGGGTGGCTTGCAGCAG` has a fluorescence intensity of 64.3 a.u.
`CTTCTGTAAATTTTTCACGTGTTATGACGCGCCCCG` has a fluorescence intensity of 951 a.u.

Sample 3
Target: CCNA1, cyclin fold, Cln2 fusion (human)
Method: yeast growth competition, sequencing
Matrix: yeast
Setting: weak parent motif
Relative to: not given
Direction: higher = stronger binding
Starting sequence: E2F1 docking peptide (human); PPVKRRLDLETDH
Under “normalised enrichment score”, `GPVKRRLDLETDH [P1G]` is recorded as 0.47.
`QPVKRRLDLETDH [P1Q]`: “normalised enrichment score” 0.469.
`PCVKRRLDLETDH [P2C]`: “normalised enrichment score” 0.502.
`PPVKRRLDLWTDH [E10W]` — result for “normalised enrichment score”: 0.442.
For `PPFKRRLDLETDH [V3F]`, “normalised enrichment score” read 0.44.
`PPVKYRLDLETDH [R5Y]` — result for “normalised enrichment score”: 0.108.
Under “normalised enrichment score”, `PPVKRRLDLHTDH [E10H]` is recorded as 0.803.

Single results of other studies
`PhoQ, residues 284 288 289 292 302 303 SCCLKL` has a fold induction of 4.89 (PhoP, residues 12 14 15 18 19 SEGLL (Escherichia coli, UniProt P23836); Sort-seq, refers to: YFP reporter; E. coli; PhoQ-PhoP variant library, together with: 10 µM Mg2+; relative to: high Mg2+ state, higher = stronger signaling).

Some of these lines once more (sample 2):
`CTTCTGTAAATTTTTCACGTGTTATGACGCGCCCCG` has a fluorescence intensity of 951 a.u.
`CCGATCAGACCAGCAAACGTGCAAACCACTTATGGA` has a fluorescence intensity of 88.9 a.u.
